Measurements from different studies.
Compare with care: the assays were run in different laboratories. Several values in a cell are separate wells, animals, samples, runs or records. ± gives the spread as reported.

Structure (SMILES)	assay	test system	setting	tissue uptake
N#C[C@@H]1CCCN1C(=O)CNC(=O)c1ccnc2ccc(OCCCN3CCN(C(=O)CCc4ccc5c(c4)CN4CCN(Cc6cc(CCC(=O)O)ccc6O)CC(=O)[O][Al-]([18F])([O]C(=O)C4)[O]5)CC3)cc12 (stereo partly drawn)	–	BALB/c nude mice, U-87 MG xenograft, gallbladder	1 h, blocked 60 min, added: DOTA-FAPI-04 40 nmol co-injected	102 ± 16.8 %ID/g
Cc1cc(C)n(CCN(CCN)CCCCCCNC(=O)[C@@H](N)Cc2c[nH]cn2)n1.[99Tc+].[C-]#[O+].[C-]#[O+].[C-]#[O+]	–	BALB/c nude mice, A549 xenograft, pancreas	intravenous, 4 h	0.49 ± 0.01 %IA/g
O=C([O-])CN1CCN(CC(=O)[O-])CCN(CC(=O)NC[C@H]2CC[C@H](C(=O)N[C@H](Cc3cnc4ccccc4c3)C(=O)NCCCC[C@H](NC(=O)N[C@@H](CCC(=O)O)C(=O)O)C(=O)O)CC2)CCN(CC(=O)[O-])CC1.[64Cu+2]	ex vivo gamma counting	22Rv1 tumour-bearing mice, muscle	intravenous, 0.74 MBq, 6 h post-injection	1.56 %ID/g
CCCC[C@H](NC(=O)COCCOCCNC(=O)CN1CCN(CC(=O)O)CCN(CC(=O)O)CC1)C(=O)N[C@H]1CC(=O)NCCCC[C@@H](C(N)=O)NC(=O)[C@H](Cc2c[nH]c3ccccc23)NC(=O)[C@H](CCCNC(=N)N)NC(=O)[C@@H](Cc2ccccc2)NC(=O)[C@H](Cc2c[nH]cn2)NC1=O [fluorine-18 labelled]	–	C57 mice B16-F10 melanoma, kidneys	intravenous, 0.37 MBq, 2 h	1.32 ± 0.3 %ID/g
O=C(NCC1OC2CCC=CCCC2O1)c1ccc(COCCOCCOCC[18F])cc1 (stereo not drawn)	–	healthy female BALB/c nude mice, pancreas	intravenous, 7.4 MBq per mouse, 120 min	1.1 ± 0.03 %ID/g
CC(C)C[C@H](NC(=O)[C@@H](CCCCNC(=O)[C@@H](Cc1ccccc1)NC(=O)CCCCCCCNC(=O)CN1CCN(CC(=O)O)CCN(CC(=O)O)CCN(CC(=O)O)CC1)NC(=O)[C@H](Cc1ccc(O)cc1)NC(=O)[C@H](CO)NC(=O)[C@H](Cc1c[nH]c2ccccc12)NC(=O)[C@H](Cc1c[nH]cn1)NC(=O)[C@@H]1CCC(=O)N1)C(=O)N[C@@H](CCCNC(=N)N)C(=O)N1CCC[C@H]1C(=O)NCC(N)=O [indium-111 labelled]	biodistribution	male athymic nude mice, DU-145 prostate cancer xenograft, heart	intravenous, 0.037 MBq, 4 h post-injection	0.12 ± 0.09 %ID/g
CCCC[C@H](NC(=O)CCCCCCCNC(=O)CN1CCN(CC(=O)O)CCN(CC(=O)O)CC1)C(=O)N[C@H]1CC(=O)NCCCC[C@@H](C(N)=O)NC(=O)[C@H](Cc2c[nH]c3ccccc23)NC(=O)[C@H](CCCNC(=N)N)NC(=O)[C@@H](Cc2ccccc2)NC(=O)[C@H](Cc2c[nH]cn2)NC1=O [fluorine-18 labelled]	–	C57 mice B16-F10 melanoma, heart	intravenous, 0.37 MBq, 1 h	0.7 ± 0.61 %ID/g
N#C[C@@H]1CCCN1C(=O)CNC(=O)c1ccnc2ccc(OCCCN3CCN(C(=O)CCc4ccc5c(c4)CN4CCN6CC(=O)[O][68Ga-]([O]C(=O)C4)([O]5)[O]c4ccc(CCC(=O)N5CCN(CCCOc7ccc8nccc(C(=O)NCC(=O)N9CCC[C@H]9C#N)c8c7)CC5)cc4C6)CC3)cc12	–	BALB/c nude mice, U-87 MG tumour, gallbladder	60 min post-injection	53.5 ± 16.9 %ID/g
Cc1cc(C)n(CCN(CCN)CCCCCCNC(=O)[C@@H](N)Cc2c[nH]c3ccccc23)n1.[99Tc+].[C-]#[O+].[C-]#[O+].[C-]#[O+]	–	BALB/c nude mice A549 xenograft, tumor	intravenous, 15 min	1.6 ± 0.68 %ID/g
N#C[C@@H]1CCCN1C(=O)CNC(=O)c1ccnc2ccc(OCCCN3CCN(C(=O)CCc4ccc(O)c(CN5CCN6CC(=O)[O][Al-]([18F])([O]C(=O)C5)[O]c5ccc(CCC(=O)N7CCN(CCCOc8ccc9nccc(C(=O)NCC(=O)N%10CCC[C@H]%10C#N)c9c8)CC7)cc5C6)c4)CC3)cc12 (stereo partly drawn)	–	BALB/c nude mice, U-87 MG xenograft, lung	2 h	3.41 ± 0.54 %ID/g
COc1ccc(Nc2nc(Nc3ccc(OCCOCC[18F])cc3)ncc2Br)cc1	–	ICR mice, S180 tumour, stomach	intravenous, 370 kBq, 15 min	0.51 ± 0.04 %ID
O=C(NCC1OC2CCC=CCCC2O1)c1ccc([18F])nc1 (stereo not drawn)	–	healthy female BALB/c nude mice, blood	intravenous, 7.4 MBq per mouse, 5 min	5.2 ± 1 %ID/g
COc1ccc2c(c1)C(C)(C)C(/C=C/C1=C(Oc3ccc(C(=O)NCCCCOc4cc(CN(Cc5ccccn5)Cc5ccccn5)cc(CN(Cc5ccccn5)Cc5ccccn5)c4)cc3)C(=C/C=C3/N(CCCCS(=O)(=O)[O-])c4ccc(OC)cc4C3(C)C)CCC1)=[N+]2CCCCS(=O)(=O)[O-].O=[N+]([O-])[O-].O=[N+]([O-])[O-].[99Tc+].[C-]#[O+].[C-]#[O+].[C-]#[O+].[Zn+2]	–	BALB/c mice, healthy, small intestine with contents	12 h post-injection	1.54 %ID/g and 1.61 %ID/g and 3.2 %ID/g
COc1ccc(Nc2nc(Nc3ccc(OCCOCCOCC[18F])cc3)ncc2Br)cc1	–	ICR mice, S180 tumour-bearing, brain	intravenous, 370 kBq, 30 min	1.91 ± 0.1 %ID/g
CCCC[C@H](NC(=O)CNC(=O)CNC(=O)[C@H](CCCCNC(=O)[C@H](CCN)NC(=O)C(C)c1ccc(CC(C)C)cc1)NC(=O)CN1CCN(CC(=O)O)CCN(CC(=O)O)CCN(CC(=O)O)CC1)C(=O)N[C@H]1CC(=O)NCCCC[C@@H](C(N)=O)NC(=O)[C@H](Cc2c[nH]c3ccccc23)NC(=O)[C@H](CCCNC(=N)N)NC(=O)[C@@H](Cc2ccccc2)NC(=O)[C@H](Cc2c[nH]cn2)NC1=O (stereo partly drawn) [lutetium-177 labelled]	–	C57 mice, tumour-bearing, bone	2 h	1.01 ± 0.05 %ID/g
